# Assay results pooled from the literature.
# Each numbered part is a random draw from the data of one study; scales do not carry over between parts. Changes are numbered by the printed parent chain.

# Set 1 — target: CCNB1, cyclin fold, Cln2 fusion (human); method: yeast growth competition, sequencing; matrix: yeast; notes: weak parent motif; relative to: not given; reading: higher = stronger binding
# Parent: SLBP docking peptide (human); ARYKRKLLINDFG
Variant,normalised enrichment score
Y3P,0.114
D11F,0.409
L8G,0.661
D11C,0.441
K4R,0.271
F12H,0.222
L7N,1.11
K4F,0.796
Y3T,0.225
R5V,0.907
N10D,0.485
A1E,-0.0535
N10H,-0.0506
F12C,0.917
K6H,0.0464
L7Q,0.489
R5M,0.856
F12I,0.467
D11Q,0.359
N10Q,0.719
F12Q,-0.177
R5I,0.734

# Set 2 — method: DHFR PCA, deep sequencing; matrix: yeast; with: (+)-ABA 4.8 µM; relative to: wild-type fitted maximum; reading: higher = stronger binding
# Target: ABI1, truncated, D143A, DHFR fusion (Arabidopsis thaliana)
# Notes: methotrexate growth selection, single substitutions
# Parent: PYL1, truncated, DHFR fusion (Arabidopsis thaliana); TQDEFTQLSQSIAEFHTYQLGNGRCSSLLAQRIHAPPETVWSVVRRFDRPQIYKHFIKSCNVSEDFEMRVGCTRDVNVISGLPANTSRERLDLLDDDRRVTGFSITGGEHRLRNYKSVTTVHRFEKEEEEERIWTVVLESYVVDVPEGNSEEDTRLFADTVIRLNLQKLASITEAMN; partner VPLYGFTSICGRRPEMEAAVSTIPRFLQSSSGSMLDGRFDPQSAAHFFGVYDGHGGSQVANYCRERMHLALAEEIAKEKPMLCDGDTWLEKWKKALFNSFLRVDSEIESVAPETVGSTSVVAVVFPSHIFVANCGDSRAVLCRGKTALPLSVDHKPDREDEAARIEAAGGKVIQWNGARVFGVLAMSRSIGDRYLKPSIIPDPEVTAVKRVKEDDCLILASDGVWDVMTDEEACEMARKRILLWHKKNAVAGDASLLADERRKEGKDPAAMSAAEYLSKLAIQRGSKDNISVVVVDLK
Variant,relative binding score [%]
N77G,61.5
D95E,17
F56W,53.2
P50Q,-7.89
V44E,11.4
V62A,16
A35M,2.4
N165V,3.7
E127H,76.1
D144V,6
P37S,29.2
E109F,-0.569
T120W,-5.64
A13Y,41.6
N114L,-5.73
F124I,84.1
D65H,67.9
S117D,-27
Q19D,76.4

# Set 3 — target: DDIT3, bZIP domain (human); method: DHFR protein complementation; matrix: yeast; relative to: wild-type JUN-FOS pair; reading: higher = stronger binding
# Notes: single substitutions, most at no-binding floor
# Parent: JUN, bZIP domain (human); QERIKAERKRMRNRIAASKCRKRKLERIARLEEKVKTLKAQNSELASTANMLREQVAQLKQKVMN; partner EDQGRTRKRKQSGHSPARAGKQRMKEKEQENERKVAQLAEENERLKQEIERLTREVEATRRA
Variant,binding fitness [natural log]
R30F,0.0906
A46N,0.0975
K39P,-1.19
A29Q,-0.0427
V56N,-0.632
V35R,-0.531
T37S,0.018
A46V,0.0496
K39G,-0.201
L59H,-0.277
L38Y,-0.676
L59G,-0.0995
E54A,-0.0535
L59V,-0.25
K36A,0.115
R53A,-0.111
E44R,-0.0342
K39E,0.191

# Set 4 — method: RNA Bind-n-Seq; molecule type: RNA; matrix: in vitro; concentration: not given; relative to: input RNA pool; reading: higher = stronger binding
# Target: RING finger protein unkempt homolog, zinc fingers 1-6, GST-SBP tag (UNK, Homo sapiens, UniProt Q9C0B0, residues 30-357)
# Sequence of UniProt Q9C0B0 (30-357, looked up): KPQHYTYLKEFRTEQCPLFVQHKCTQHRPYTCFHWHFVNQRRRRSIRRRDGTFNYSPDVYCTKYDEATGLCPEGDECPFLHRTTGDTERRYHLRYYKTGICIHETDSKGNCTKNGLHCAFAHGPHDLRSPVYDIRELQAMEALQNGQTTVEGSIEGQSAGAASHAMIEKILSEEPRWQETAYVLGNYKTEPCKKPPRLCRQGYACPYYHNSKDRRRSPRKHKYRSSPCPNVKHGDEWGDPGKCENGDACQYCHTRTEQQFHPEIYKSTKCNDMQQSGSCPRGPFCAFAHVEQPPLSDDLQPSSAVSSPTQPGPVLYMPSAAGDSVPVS
# Notes: RNA with constant flanks, human and mouse sites, ends assumed
# Shared flanks, not repeated: GGGAGUUCUACAGUCCGACGAUC … CAACAGAGGAUUGAGCAUCA
Sequence,bound/input enrichment [ratio]
GUUCCAGACCCGGAGCUGAUCGAUUUGAUCUACUGUGGCCGGAAGCUAAAAGAUGACCAGACCCUUGACUUCUAUGGUAUUCAGCCUGGAUCCACAGUCCAUGUUCUCCGAAAAUCUUGG,0.0528
CAGAGAAGAAGGGAAAGGCCAAAGACACCACCUAGUAAUCUCUCUCCCAUUGAAGAUGCAUCUCCGACAGAAGAGUUACGUCAGGCUGCAGAAAUGGAGGAGCUCCAUAGAUCUUCUUGU,0.301
GCAGGAUUUGACUCAUCAAAAAACAUCUUUCUUGGGGAGAAGGCUGCCAAAUGGAAGACAUCAGAUGGACAGAUGGAUGGCUUGACCACUAAUGGUGUUCUUGUGAUGCAUCCACGCAAU,0.122
CUCUACAAUGCUGCCAGCUUAUUUGGAUUCCCAUUCCAGCUGACCACAAAGCCCAUGGUAACUUCUGCUUGUAAUGGAACACGGAAUGUGGCCCCUUCAGGAGAGGUAUUUUCGAACUCU,0.219
GUAUUCGACUUAAAAGAAAGAAAUCAGUGGUUGCGAAGGAAUAUCAAAAACCUACUUCAACAGCUUAUUAGAGCUACAUAUGGCGAUACUAUUAAUAGAAAAAUAGUUGACCAUGUUGAC,0.339
UUGGCUACACUUUUCAGUGCAUUGACUGGUUUGCCAUGGAGUCUUUAUAAUACUUUUGUGAUAGAAGAAAAACAUGGCUUCAAUCAACAGACUUUGGGGUUCUUCAUGAAAGAUGCAAUC,0.112
UGGUUUAAAGCCCUGAGGAUAGUAGUCACUUUAUUGGCCACUUUUUCAUUUAUAAUCACUUUAGUAGUUAAAAGUAGUUUUCCAGAAAAAGGACAUAAGAGACCUGGUCAAGUAUAAAAA,0.655
GGUCUCAGCCCCCCACCCCCACCCCUUUGUUUGACUUGCGUCGUCUGAUACUCCGUAUUGUAGCUUUUGUCCGCAUGUUACUACCCUGUAAAUAUGCUGUUCCAAUACUGUUAACAGCCU,0.843

# Set 5 — method: protein binding microarray; molecule type: double-stranded DNA, one strand shown; matrix: in vitro; concentration: not given; relative to: not given; reading: higher = stronger binding
# Target: Histone acetyltransferase KAT6A, both winged helices, GST fusion (KAT6A, Homo sapiens, UniProt Q92794, residues 1-181)
# Notes: 8-mer, flanks averaged, mean of 2 arrays, mostly near background
# Target sequence (chain): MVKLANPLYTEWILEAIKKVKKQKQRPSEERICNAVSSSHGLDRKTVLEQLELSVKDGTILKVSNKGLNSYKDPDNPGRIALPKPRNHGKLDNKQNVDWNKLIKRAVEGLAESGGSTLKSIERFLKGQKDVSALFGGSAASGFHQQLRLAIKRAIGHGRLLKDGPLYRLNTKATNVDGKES
Sequence,E-score
AGCTATAA,-0.208
AGTCCGCA,0.216
AGTTTGTC,-0.11
ATACATCC,0.0953
CGCATTTA,0.0776
GGTCGTGA,-0.0596
CGTCACAA,0.0984
ACCATGAA,-0.0501
CTGGACCC,-0.107
ACGTAGGG,-0.172
AGCCGCAA,0.111
AAGCTCTC,-0.255
CGACTGAC,0.0485
CTTCTTCC,-0.11
ACGCAACC,0.106
TCCGTTAA,0.21
CGGGTCGA,0.0854
AGTCTGTC,-0.0971
CGGGCCCC,0.211
AAGTCTCG,-0.0101
GCAGTACC,-0.0685
GAGTGCTA,-0.153
GATTGCCC,-0.0527
AAAAGACA,0.0106
AGACAGGC,-0.0399
